Experimental data from different studies.
Numbered parts are unrelated; each lists some results of a single study.

Sample 1 — technique: protein binding microarray; form: double-stranded DNA, one strand shown; sample: in vitro; tested at: not given; baseline: not given; direction: higher = stronger binding; measurement: E-score
Target: Histone acetyltransferase KAT6A, both winged helices, GST fusion (KAT6A, Homo sapiens, UniProt Q92794, residues 1-181)
Notes: 8-mer, flanks averaged, mean of 2 arrays, mostly near background
Residues (chain): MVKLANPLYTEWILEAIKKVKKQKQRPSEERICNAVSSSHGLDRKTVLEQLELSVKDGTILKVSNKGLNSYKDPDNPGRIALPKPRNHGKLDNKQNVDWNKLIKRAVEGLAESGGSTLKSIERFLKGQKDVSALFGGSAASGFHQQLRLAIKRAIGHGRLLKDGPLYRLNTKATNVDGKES
ATTTGCCG: 0.266
CTAGATGC: -0.00721
GGACTGCC: 0.0109
GGTCGGAA: 0.0913
CCGGAGTC: 0.0903
GAGCCAAA: -0.107
AGCTGTCG: 0.0633
AACTCCTA: -0.234
CCTAGGCG: 0.0596

Sample 2 — technique: protein-binding microarray; form: double-stranded DNA, one strand shown; sample: in vitro; tested at: 2540 nM top; notes: 60-bp whole probe; with: salmon DNA 0.4 mg/ml; baseline: random background probes; direction: higher = stronger binding; measurement: fitted relative affinity; constant ends, left off below: GCCTAGCAC … GTCTTGATTCGCTTGACGCTGCTG
Target: Interferon regulatory factor 3, full length, phosphomimetic (IRF3, Homo sapiens, UniProt Q14653, residues 1-427, S386D/S396D/S398D/S402D/T404D/S405D)
Chain of UniProt Q14653 (whole entry, unmodified, looked up): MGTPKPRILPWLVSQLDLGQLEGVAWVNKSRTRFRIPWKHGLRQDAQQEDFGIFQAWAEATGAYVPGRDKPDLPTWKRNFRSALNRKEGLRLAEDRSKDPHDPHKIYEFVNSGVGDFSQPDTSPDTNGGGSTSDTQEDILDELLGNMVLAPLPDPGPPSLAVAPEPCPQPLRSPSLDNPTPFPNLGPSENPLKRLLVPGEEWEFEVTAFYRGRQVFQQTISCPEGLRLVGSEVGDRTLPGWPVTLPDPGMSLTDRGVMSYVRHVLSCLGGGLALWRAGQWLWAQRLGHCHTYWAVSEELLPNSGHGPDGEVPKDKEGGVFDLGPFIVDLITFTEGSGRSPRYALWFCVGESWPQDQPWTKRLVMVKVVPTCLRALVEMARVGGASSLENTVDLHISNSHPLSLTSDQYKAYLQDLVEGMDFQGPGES
GACGGACTGGGTCACGGGACGTGCTAG: -0.704 z-score
GACGGTCTCGGCTTCGGGACGTGCTAG: -0.116 z-score
CTATTTTTCACCTGCACTCAGTGCTAG: 1.33 z-score
TTAGATTTCGGGTATCGATAAGTGCTA: 1.62 z-score
TTAGATATCGGGTATCTATTAGTGCTA: 0.237 z-score
TCACGGATGATCTCTCTGACTGTGCTA: -0.655 z-score

Sample 3 — technique: RNA Bind-n-Seq; form: RNA; sample: in vitro; tested at: 200 nM; notes: whole 134-nt RNA, ends assumed; with: 150 mM KCl; baseline: input library; direction: higher = stronger binding; measurement: log2 enrichment
Target: Fragile X messenger ribonucleoprotein 1, C-terminal low-complexity region (Fmr1, Mus musculus, UniProt P35922)
GGGAGUUCUACAGUCCGACGAUCUCAAGUCCUGUGCUACACAUCGUAUGUACCGAAUCGGAAAAAGGUGGUUUUUGGAAAGUAUUAUGUUACGCCGUUCGGAUCUGCACUUCCUGGAAUUCUCGGGUGUCAAGG: -0.655
GGGAGUUCUACAGUCCGACGAUCCUCAAGUCCUGUGCUACACAUCGUAUGUACCGAAUCGGAGGAAAGGUUUUUGGAAAGUAUUAUGUUACGCCGUUCGGAUCUGCACUUCCAUGGAAUUCUCGGGUGUCAAGG: -0.477
GGGAGUUCUACAGUCCGACGAUCCACAGACAACACGCACCCACACAGACACAGAGGGAAGGGGUUGGGAUGGGGACAGAAAGCACAGCAGGGCGGGGUAGGACCCCAGCCCCUUGGAAUUCUCGGGUGUCAAGG: 1.24
GGGAGUUCUACAGUCCGACGAUCGCAGGAAGUAAAAACAAAUGGAAAUGCUUCGGAUAGUGGCAUGGGUGGGGGUUGCUAAGGAAAGGGUGGGAUGGGAGUGGGUAAAGAGUUUGGAAUUCUCGGGUGUCAAGG: 0.21

Further values, each from its own experiment
PhoQ, residues 284 288 289 292 302 303 GLASVI  fold induction (PhoP, residues 12 14 15 18 19 NQFFI (Escherichia coli, UniProt P23836); Sort-seq, item: YFP reporter; E. coli; PhoQ-PhoP variant library, with: 10 µM Mg2+; baseline: high Mg2+ state, higher = stronger signaling): 9.55

For quick reference, copied from above (sample 3):
GGGAGUUCUACAGUCCGACGAUCCUCAAGUCCUGUGCUACACAUCGUAUGUACCGAAUCGGAGGAAAGGUUUUUGGAAAGUAUUAUGUUACGCCGUUCGGAUCUGCACUUCCAUGGAAUUCUCGGGUGUCAAGG: -0.477
GGGAGUUCUACAGUCCGACGAUCUCAAGUCCUGUGCUACACAUCGUAUGUACCGAAUCGGAAAAAGGUGGUUUUUGGAAAGUAUUAUGUUACGCCGUUCGGAUCUGCACUUCCUGGAAUUCUCGGGUGUCAAGG: -0.655
GGGAGUUCUACAGUCCGACGAUCGCAGGAAGUAAAAACAAAUGGAAAUGCUUCGGAUAGUGGCAUGGGUGGGGGUUGCUAAGGAAAGGGUGGGAUGGGAGUGGGUAAAGAGUUUGGAAUUCUCGGGUGUCAAGG: 0.21
